{"data": "Measurements gathered from unrelated publications", "note": "Each numbered part is a random draw from the data of one study; scales do not carry over between parts. Positions count from the first letter of the parent shown."}
{"data": "Sample 1", "Substance": "PhoQ, residues 284 288 289 292 302 303 ASTSDA", "method": "Sort-seq", "measured": "YFP reporter", "matrix": "E. coli", "notes": "PhoQ-PhoP variant library", "with": "10 µM Mg2+", "baseline": "high Mg2+ state", "direction": "higher = stronger signaling"}
{"target": "PhoP, residues 12 14 15 18 19 TQALL (Escherichia coli, UniProt P23836)", "fold induction": 2.54}
{"target": "PhoP, residues 12 14 15 18 19 QYFSL (Escherichia coli, UniProt P23836)", "fold induction": 16.9}
{"target": "PhoP, residues 12 14 15 18 19 NYFRM (Escherichia coli, UniProt P23836)", "fold induction": 10.6}
{"data": "Sample 2", "target": "Interferon regulatory factor 7, full length, phosphomimetic (IRF7, Homo sapiens, UniProt Q92985, residues 1-503, S471D/S472D/S475D/S476D/S477D/S483D/S484D/S487D)", "method": "protein-binding microarray", "molecule type": "double-stranded DNA, one strand shown", "matrix": "in vitro", "concentration": "2200 nM top", "notes": "60-bp whole probe", "with": "salmon DNA 0.4 mg/ml", "baseline": "random background probes", "direction": "higher = stronger binding", "shared flanks, not repeated": "GCCTAGCAC … GTCTTGATTCGCTTGACGCTGCTG", "Target sequence (chain)": "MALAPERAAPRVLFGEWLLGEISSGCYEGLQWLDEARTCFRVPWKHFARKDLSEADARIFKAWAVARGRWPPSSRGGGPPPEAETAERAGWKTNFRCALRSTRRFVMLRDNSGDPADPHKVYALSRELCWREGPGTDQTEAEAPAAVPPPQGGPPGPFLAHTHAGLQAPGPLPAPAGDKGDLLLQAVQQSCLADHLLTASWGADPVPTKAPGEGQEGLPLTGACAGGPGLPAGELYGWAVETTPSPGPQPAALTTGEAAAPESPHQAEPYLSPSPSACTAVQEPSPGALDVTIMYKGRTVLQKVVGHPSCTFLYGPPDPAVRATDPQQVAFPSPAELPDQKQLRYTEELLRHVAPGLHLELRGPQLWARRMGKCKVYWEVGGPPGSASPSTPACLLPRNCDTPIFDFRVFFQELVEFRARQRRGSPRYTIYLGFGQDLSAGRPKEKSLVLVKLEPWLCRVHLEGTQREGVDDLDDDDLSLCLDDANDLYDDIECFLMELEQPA"}
{"Sequence": "ATCATTCTCACTGCAGCCTTGTGCTAG", "fitted relative affinity [z-score]": 1.56}
{"Sequence": "GACGTTTTCGGGTATCGAGACGTGCTA", "fitted relative affinity [z-score]": 5.72}
{"Sequence": "GACGATCTCAGTTTCGCGACGTGCTAG", "fitted relative affinity [z-score]": 2.16}
{"Sequence": "TCACTTGTCCCTCCGGGACTGTGCTAG", "fitted relative affinity [z-score]": 0.417}
{"Sequence": "TTAGCTTTCGGTATCGGTTAGTGCTAG", "fitted relative affinity [z-score]": 7.83}
{"Sequence": "GACAGTATCCTTTTCCTGACGTGCTAG", "fitted relative affinity [z-score]": 1.78}
{"Sequence": "GACGATATCGGGACTGGAGATGTGCTA", "fitted relative affinity [z-score]": -0.294}
{"Sequence": "GACGGTTCCGGTTTCGGGAGGTGCTAG", "fitted relative affinity [z-score]": 5.02}
{"Sequence": "TTAGAAATGGGGACTGGATTAGTGCTA", "fitted relative affinity [z-score]": -0.535}
{"Sequence": "GAGGATCTCAGTTTCGAGACGTGCTAG", "fitted relative affinity [z-score]": 3.28}
{"Sequence": "GACGGACTTGGGACTGGGGACGTGCTA", "fitted relative affinity [z-score]": -0.95}
{"Sequence": "GACGGTTTGCTACTGCTGACGTGCTAG", "fitted relative affinity [z-score]": 0.924}
{"Sequence": "TTAGATTTCCTTTTCCTTTAGTGCTAG", "fitted relative affinity [z-score]": 4.4}
{"Sequence": "TTGTTTTTCATCATTGCCTAGTGCTAG", "fitted relative affinity [z-score]": 2.38}
{"Sequence": "GACGATATCAGTTTCCAGACGTGCTAG", "fitted relative affinity [z-score]": 1.62}
{"Sequence": "TTAGTACTGGGGTATCGGTTAGTGCTA", "fitted relative affinity [z-score]": 0.198}
{"Sequence": "TCATCTTTTCATTTTCTACTGTGCTAG", "fitted relative affinity [z-score]": 3.62}
{"Sequence": "GACGGTTTCGGCATCGGGACGTGCTAG", "fitted relative affinity [z-score]": 3.14}
{"Sequence": "TTAGGACTGCTTATCCGTTAGTGCTAG", "fitted relative affinity [z-score]": 0.346}
{"Sequence": "AACGGTTTCCTACTGCTGACGTGCTAG", "fitted relative affinity [z-score]": 2.22}
{"Sequence": "TTAGGTTTCCGTTTCGGTTAGTGCTAG", "fitted relative affinity [z-score]": 8.38}
{"Sequence": "ACTAATTTTCAATTCCTGAAGTGCTAG", "fitted relative affinity [z-score]": 1.77}
{"Sequence": "TTAGGACTTGGACTGGGTTAGTGCTAG", "fitted relative affinity [z-score]": -0.496}
{"Sequence": "GACGATATCGGGTGTCGAGACGTGCTA", "fitted relative affinity [z-score]": 0.0614}
{"Sequence": "TTAGGACTGTACACTGGGTTAGTGCTA", "fitted relative affinity [z-score]": -0.163}
{"data": "Sample 3", "target": "CCNB3, cyclin fold, Cln2 fusion (human)", "method": "yeast growth competition, sequencing", "matrix": "yeast", "notes": "weak parent motif", "baseline": "not given", "direction": "higher = stronger binding", "starting sequence": "DBF4B docking peptide (human); LGYLYLLLTQSLW; partner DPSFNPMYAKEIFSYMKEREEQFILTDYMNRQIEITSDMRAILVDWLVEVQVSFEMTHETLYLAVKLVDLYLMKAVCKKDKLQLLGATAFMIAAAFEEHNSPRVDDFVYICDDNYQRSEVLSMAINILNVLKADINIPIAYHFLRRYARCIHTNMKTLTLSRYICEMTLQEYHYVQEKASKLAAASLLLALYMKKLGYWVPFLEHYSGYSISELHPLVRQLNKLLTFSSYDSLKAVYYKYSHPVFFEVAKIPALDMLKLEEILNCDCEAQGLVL"}
{"Change": "LGYLYALLTQSLW [L6A]", "normalised enrichment score": 0.102}
{"Change": "LGALYLLLTQSLW [Y3A]", "normalised enrichment score": 0.0911}
{"Change": "LGYLYLLLAQSLW [T9A]", "normalised enrichment score": 0.406}
{"Change": "LGYLYLLLTQSLA [W13A]", "normalised enrichment score": -0.233}
{"Change": "LGYAYLLLTQSLW [L4A]", "normalised enrichment score": 0.362}
{"Change": "AGYLYLLLTQSLW [L1A]", "normalised enrichment score": 1.92}
{"Change": "LGYLYLLATQSLW [L8A]", "normalised enrichment score": 0.778}
{"data": "Sample 4", "target": "Sal-like protein 4, full length isoform A (SALL4, Homo sapiens, UniProt Q9UJQ4, residues 1-1053)", "method": "universal PBM", "molecule type": "double-stranded DNA, one strand shown", "matrix": "in vitro", "concentration": "600 nM", "notes": "8-mer, flanks averaged, mean of replicates", "direction": "higher = stronger binding", "chain of UniProt Q9UJQ4 (whole entry, looked up)": "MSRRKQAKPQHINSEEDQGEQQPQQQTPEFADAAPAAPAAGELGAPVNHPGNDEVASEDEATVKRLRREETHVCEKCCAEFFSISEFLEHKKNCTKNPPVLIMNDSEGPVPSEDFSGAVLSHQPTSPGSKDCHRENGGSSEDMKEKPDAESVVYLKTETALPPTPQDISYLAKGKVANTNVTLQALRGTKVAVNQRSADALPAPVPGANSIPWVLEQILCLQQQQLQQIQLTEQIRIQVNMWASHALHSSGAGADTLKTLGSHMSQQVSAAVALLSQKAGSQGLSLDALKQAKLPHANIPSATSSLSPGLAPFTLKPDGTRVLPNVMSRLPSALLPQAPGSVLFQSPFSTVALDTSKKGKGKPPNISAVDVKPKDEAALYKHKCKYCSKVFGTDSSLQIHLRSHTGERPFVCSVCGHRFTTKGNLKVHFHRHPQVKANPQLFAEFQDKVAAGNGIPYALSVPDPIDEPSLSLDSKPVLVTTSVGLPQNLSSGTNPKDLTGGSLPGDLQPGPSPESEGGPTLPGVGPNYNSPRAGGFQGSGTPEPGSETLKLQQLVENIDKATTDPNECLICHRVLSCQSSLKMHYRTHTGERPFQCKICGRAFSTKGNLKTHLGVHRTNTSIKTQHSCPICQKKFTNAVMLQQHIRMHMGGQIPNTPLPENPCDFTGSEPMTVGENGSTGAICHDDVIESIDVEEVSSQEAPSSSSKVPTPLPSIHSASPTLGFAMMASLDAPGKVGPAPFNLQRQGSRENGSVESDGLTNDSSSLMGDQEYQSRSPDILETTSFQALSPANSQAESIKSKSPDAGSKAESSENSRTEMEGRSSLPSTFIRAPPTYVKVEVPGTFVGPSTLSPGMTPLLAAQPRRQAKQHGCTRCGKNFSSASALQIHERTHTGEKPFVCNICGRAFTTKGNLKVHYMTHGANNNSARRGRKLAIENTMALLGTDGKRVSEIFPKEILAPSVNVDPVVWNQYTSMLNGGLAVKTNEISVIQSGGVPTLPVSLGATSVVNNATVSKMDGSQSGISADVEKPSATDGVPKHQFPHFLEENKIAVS"}
{"Sequence": "ACACTGGG", "E-score": -0.146}
{"Sequence": "CAATAAAG", "E-score": 0.31}
{"Sequence": "AGAGAGTA", "E-score": 0.0616}
{"Sequence": "AGAAGCAC", "E-score": -0.0695}
{"Sequence": "ACATTCAC", "E-score": 0.105}
{"Sequence": "AGGCCTGC", "E-score": -0.348}
{"Sequence": "CCGTCATA", "E-score": 0.19}
{"Sequence": "CCCTTACG", "E-score": -0.124}
{"Sequence": "ACTATCGG", "E-score": -0.0702}
{"Sequence": "CAGGAGGA", "E-score": -0.22}
{"Sequence": "CGTGAGAG", "E-score": -0.206}
{"Sequence": "ATAGTCTC", "E-score": 0.149}
{"Sequence": "GGTTGCTA", "E-score": -0.0246}
{"Sequence": "CCCCACGA", "E-score": -0.203}
{"Sequence": "GCTACGAA", "E-score": 0.0207}
{"Sequence": "CTAGGACA", "E-score": 0.0736}
{"Sequence": "GGAGGTAA", "E-score": 0.0125}
{"Sequence": "ACACCATA", "E-score": 0.188}
{"Sequence": "ACAATGCG", "E-score": -0.0183}
{"Sequence": "AGCCTTCG", "E-score": -0.207}
{"Sequence": "CAGGTGTC", "E-score": -0.224}
{"note": "A few entries again (sample 2):"}
{"Sequence": "GACGGTTTGCTACTGCTGACGTGCTAG", "fitted relative affinity [z-score]": 0.924}
{"Sequence": "TTAGATTTCCTTTTCCTTTAGTGCTAG", "fitted relative affinity [z-score]": 4.4}
{"Sequence": "TTGTTTTTCATCATTGCCTAGTGCTAG", "fitted relative affinity [z-score]": 2.38}
{"Sequence": "GACGATATCAGTTTCCAGACGTGCTAG", "fitted relative affinity [z-score]": 1.62}
{"Sequence": "TTAGTACTGGGGTATCGGTTAGTGCTA", "fitted relative affinity [z-score]": 0.198}
{"Sequence": "TCATCTTTTCATTTTCTACTGTGCTAG", "fitted relative affinity [z-score]": 3.62}
{"Sequence": "GACGGTTTCGGCATCGGGACGTGCTAG", "fitted relative affinity [z-score]": 3.14}
{"Sequence": "TTAGGACTGCTTATCCGTTAGTGCTAG", "fitted relative affinity [z-score]": 0.346}
